Measured values from different studies.
A part holds a random share of what one study measured. Values joined by “and” are separate records of one study, mostly repeats; a detail may differ.
Chain of UniProt Q8IVH8 (whole entry, looked up): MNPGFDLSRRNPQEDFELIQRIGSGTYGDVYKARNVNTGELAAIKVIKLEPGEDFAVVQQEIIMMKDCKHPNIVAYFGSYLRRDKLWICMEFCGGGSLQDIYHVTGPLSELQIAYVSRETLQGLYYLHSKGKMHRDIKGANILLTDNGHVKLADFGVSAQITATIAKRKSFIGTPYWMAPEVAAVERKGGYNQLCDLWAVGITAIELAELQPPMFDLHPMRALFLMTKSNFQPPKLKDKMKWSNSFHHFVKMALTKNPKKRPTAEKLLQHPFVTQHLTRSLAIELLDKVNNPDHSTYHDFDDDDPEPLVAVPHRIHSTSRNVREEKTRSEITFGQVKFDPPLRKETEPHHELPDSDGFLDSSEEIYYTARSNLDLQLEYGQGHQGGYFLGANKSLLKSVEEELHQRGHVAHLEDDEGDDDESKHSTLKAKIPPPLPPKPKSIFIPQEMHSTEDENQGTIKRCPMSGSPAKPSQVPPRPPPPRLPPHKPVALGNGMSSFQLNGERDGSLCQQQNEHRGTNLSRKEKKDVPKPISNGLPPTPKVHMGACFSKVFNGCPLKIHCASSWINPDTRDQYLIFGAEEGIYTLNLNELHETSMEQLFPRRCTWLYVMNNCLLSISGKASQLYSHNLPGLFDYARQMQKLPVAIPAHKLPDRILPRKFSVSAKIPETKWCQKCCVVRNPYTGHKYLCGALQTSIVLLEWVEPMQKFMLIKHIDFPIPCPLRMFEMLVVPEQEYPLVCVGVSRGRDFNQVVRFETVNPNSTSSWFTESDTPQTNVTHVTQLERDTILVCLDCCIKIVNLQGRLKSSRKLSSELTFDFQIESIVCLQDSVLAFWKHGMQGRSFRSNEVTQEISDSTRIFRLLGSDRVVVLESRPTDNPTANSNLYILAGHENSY
Chain of UniProt Q5S007 (whole entry, unmodified, looked up): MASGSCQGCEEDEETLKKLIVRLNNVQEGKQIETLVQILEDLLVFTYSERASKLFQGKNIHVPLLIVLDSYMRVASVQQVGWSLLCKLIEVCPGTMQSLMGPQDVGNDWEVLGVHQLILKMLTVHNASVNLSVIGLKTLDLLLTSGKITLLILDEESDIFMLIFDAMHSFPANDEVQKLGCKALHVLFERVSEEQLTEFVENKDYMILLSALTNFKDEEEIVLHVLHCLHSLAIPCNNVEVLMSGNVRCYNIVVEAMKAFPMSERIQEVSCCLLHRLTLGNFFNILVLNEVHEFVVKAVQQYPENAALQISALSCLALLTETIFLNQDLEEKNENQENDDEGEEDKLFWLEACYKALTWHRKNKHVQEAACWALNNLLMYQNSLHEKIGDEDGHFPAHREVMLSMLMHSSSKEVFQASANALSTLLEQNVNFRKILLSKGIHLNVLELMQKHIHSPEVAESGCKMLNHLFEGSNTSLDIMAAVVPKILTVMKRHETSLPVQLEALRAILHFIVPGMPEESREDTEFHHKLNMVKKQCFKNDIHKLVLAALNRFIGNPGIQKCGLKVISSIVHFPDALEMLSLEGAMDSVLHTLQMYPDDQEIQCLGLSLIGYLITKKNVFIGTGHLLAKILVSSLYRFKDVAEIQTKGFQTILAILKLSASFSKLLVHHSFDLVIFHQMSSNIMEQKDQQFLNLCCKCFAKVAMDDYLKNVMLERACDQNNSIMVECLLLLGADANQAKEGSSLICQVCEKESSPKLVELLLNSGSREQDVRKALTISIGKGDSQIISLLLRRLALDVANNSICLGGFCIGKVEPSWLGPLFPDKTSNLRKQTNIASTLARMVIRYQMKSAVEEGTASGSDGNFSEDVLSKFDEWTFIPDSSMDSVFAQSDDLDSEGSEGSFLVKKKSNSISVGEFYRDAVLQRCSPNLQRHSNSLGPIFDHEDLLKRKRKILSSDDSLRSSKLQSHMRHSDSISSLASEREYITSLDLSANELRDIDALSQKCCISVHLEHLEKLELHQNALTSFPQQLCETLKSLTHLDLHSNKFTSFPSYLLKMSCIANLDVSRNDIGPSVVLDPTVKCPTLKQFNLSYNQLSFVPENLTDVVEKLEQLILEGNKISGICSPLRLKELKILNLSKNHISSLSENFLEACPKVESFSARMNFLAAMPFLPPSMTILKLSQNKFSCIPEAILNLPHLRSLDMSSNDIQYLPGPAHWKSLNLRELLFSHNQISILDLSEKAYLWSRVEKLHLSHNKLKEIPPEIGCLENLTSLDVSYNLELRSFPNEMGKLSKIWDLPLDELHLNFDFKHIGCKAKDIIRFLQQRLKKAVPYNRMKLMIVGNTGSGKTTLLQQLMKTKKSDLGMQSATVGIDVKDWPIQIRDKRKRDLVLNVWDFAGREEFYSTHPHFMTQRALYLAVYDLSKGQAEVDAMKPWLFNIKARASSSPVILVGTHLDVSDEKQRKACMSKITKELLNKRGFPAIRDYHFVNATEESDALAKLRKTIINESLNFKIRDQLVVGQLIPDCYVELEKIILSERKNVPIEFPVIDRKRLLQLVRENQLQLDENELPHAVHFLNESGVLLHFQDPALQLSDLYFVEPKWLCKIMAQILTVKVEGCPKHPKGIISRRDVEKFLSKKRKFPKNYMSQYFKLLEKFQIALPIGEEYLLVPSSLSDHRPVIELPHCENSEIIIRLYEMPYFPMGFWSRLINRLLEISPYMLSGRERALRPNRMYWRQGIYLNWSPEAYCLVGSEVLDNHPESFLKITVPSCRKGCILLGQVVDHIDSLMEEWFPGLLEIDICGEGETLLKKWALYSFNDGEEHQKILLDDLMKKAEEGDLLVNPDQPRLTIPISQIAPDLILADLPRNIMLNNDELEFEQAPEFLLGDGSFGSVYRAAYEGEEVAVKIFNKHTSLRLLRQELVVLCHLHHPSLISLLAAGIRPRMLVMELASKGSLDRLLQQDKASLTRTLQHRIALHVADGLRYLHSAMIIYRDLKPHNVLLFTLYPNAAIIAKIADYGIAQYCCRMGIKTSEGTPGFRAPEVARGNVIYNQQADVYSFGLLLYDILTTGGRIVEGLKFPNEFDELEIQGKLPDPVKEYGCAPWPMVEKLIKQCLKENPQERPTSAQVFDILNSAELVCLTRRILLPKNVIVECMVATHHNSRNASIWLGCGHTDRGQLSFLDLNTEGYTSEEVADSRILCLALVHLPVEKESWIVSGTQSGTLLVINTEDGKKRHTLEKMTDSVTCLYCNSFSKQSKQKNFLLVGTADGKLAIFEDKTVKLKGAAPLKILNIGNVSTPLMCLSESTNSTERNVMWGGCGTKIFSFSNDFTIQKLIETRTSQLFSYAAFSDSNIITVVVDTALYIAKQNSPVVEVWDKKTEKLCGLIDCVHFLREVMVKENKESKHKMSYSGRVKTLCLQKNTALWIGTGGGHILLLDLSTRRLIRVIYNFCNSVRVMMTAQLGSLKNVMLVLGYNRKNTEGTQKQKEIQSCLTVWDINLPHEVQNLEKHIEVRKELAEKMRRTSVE
Chain of UniProt Q9UIK4 (whole entry, looked up): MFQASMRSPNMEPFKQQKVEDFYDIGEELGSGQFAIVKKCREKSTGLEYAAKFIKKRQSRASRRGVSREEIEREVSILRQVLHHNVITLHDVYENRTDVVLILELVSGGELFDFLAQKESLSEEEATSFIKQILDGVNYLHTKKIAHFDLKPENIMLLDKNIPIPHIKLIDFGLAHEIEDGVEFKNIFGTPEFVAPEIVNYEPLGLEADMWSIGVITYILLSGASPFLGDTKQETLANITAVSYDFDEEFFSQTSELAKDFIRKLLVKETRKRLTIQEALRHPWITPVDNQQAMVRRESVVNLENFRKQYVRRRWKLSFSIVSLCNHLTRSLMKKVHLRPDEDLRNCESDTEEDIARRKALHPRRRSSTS
Chain of UniProt P11309 (whole entry, looked up): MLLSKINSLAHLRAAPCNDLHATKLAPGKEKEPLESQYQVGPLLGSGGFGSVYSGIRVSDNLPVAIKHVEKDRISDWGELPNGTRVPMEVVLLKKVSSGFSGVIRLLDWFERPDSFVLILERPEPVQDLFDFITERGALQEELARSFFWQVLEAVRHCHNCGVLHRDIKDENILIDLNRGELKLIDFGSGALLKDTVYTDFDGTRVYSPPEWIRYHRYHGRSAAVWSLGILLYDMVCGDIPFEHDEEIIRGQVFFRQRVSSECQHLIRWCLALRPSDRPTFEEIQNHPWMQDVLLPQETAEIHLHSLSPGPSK
Chain of UniProt Q9P286 (whole entry, looked up): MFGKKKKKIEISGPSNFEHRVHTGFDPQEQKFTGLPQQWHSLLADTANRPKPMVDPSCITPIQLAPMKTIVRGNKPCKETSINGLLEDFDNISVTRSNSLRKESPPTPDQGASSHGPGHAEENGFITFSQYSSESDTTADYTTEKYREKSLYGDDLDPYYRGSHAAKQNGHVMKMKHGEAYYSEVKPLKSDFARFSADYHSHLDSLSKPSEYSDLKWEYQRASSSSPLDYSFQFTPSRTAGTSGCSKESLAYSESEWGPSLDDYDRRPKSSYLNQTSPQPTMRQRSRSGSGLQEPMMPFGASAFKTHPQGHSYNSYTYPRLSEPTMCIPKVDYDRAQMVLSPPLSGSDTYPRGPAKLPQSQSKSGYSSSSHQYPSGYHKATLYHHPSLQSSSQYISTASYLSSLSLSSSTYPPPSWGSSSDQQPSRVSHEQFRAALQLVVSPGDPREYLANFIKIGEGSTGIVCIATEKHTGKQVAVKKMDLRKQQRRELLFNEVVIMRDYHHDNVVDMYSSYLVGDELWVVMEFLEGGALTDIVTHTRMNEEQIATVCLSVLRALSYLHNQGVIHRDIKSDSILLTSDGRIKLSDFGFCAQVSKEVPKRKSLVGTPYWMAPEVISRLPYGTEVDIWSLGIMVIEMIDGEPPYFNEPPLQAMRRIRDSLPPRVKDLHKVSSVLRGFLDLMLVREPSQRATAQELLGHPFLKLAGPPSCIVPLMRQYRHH

Sample 1
SMILES: CC(C)n1cnc(-c2ccc(F)cc2)c1-c1ncc(C(=O)Nc2ccc(N3CCN(C)CC3)cc2)[nH]1
Method: phase 2a clinical trial
Species: idiopathic pulmonary fibrosis patients
| test | setting | scale | patients with TEAEs |
| --- | --- | --- | --- |
| refers to: neoplasms (SOC) | 60 mg once daily, grade 4 maximum intensity |  | 0% |
| refers to: back pain | dose not given, grade 2, all drug arms | baseline: patients | 1% |
| refers to: neoplasms (SOC) | dose not given, grade 4, all drug arms |  | 0% |
| refers to: chest discomfort | dose not given, grade 2, all drug arms | baseline: patients | 1% |
| refers to: infections and infestations | 60 mg once daily, grade 3 maximum intensity | baseline: patients | 3% |

Sample 2
Structure (SMILES): Ic1ccc(Nc2nc(NCCN3CCOCC3)nc(N3CCOCC3)n2)cc1
Cell line: L444P/L444P Gaucher fibroblasts
Method: 4-MUG hydrolysis in lysate
Time: 72 h
Baseline: vehicle
| setting | enzyme activity |
| --- | --- |
| 0.5 µM | 110% and 141% and 139% and 117% and 111% and 113% |
| 1 µM, without ISRIB | 120% and 121% and 130% and 109% and 128% and 124% and 132% |
| 0.1 µM | 105% and 96.5% and 101% and 115% and 111% and 104% and 94.8% |

Sample 3
Structure (SMILES): CNC(=O)Nc1ccc2c(c1)[C@@]1(CC2)OC(=O)N(CC(=O)N(Cc2ccc(F)cc2)[C@@H](C)C(F)(F)F)C1=O
Method: competition with immobilised ligand
Tested at: 1 µM
| target | test | remaining binding [%] |
| --- | --- | --- |
| Protein-tyrosine kinase 2-beta (PTK2B, Homo sapiens, UniProt Q14289) | cell-free assay | 83 |
| Death-associated protein kinase 2 (DAPK2, Homo sapiens, UniProt Q9UIK4) | cell-free assay | 100 |
| Phosphatidylinositol 4,5-bisphosphate 3-kinase catalytic subunit beta isoform (PIK3CB, Homo sapiens, UniProt P42338) | cell-free assay | 97 |
| Ribosomal protein S6 kinase alpha-5, C-terminal kinase domain (RPS6KA5, Homo sapiens, UniProt O75582) | cell-free assay | 72 |
| Mitotic checkpoint serine/threonine-protein kinase BUB1 (BUB1, Homo sapiens, UniProt O43683) | cell-free assay | 77 |
| Epidermal growth factor receptor (EGFR, Homo sapiens, UniProt P00533, G719C) | cell-free assay | 100 |
| Ephrin type-B receptor 3 (EPHB3, Homo sapiens, UniProt P54753) | cell-free assay | 86 |
| Serine/threonine-protein kinase MRCK alpha (CDC42BPA, Homo sapiens, UniProt Q5VT25) | cell-free assay | 98 |
| Serine/threonine-protein kinase pim-1 (PIM1, Homo sapiens, UniProt P11309) | cell-free assay | 100 |
| Casein kinase I isoform gamma-1 (CSNK1G1, Homo sapiens, UniProt Q9HCP0) | cell-free assay | 78 |
| Leucine-rich repeat serine/threonine-protein kinase 2 (LRRK2, Homo sapiens, UniProt Q5S007, G2019S) | cell-free assay | 100 |
| Megakaryocyte-associated tyrosine-protein kinase (MATK, Homo sapiens, UniProt P42679) | cell-free assay | 100 |
| Phosphatidylinositol 4,5-bisphosphate 3-kinase catalytic subunit alpha isoform (PIK3CA, Homo sapiens, UniProt P42336, E545A) | cell-free assay | 97 |
| LIM domain kinase 1 (LIMK1, Homo sapiens, UniProt P53667) | cell-free assay | 87 |
| Serine/threonine-protein kinase 24 (STK24, Homo sapiens, UniProt Q9Y6E0) | cell-free assay | 100 |
| Mitogen-activated protein kinase kinase kinase kinase 3 (MAP4K3, Homo sapiens, UniProt Q8IVH8) | cell-free assay | 89 |
| Cyclin-dependent kinase 5 (CDK5, Homo sapiens, UniProt Q00535) | cell-free assay | 79 |
| Calcium/calmodulin-dependent protein kinase type 1B (PNCK, Homo sapiens, UniProt Q6P2M8) | cell-free assay | 90 |
| Serine/threonine-protein kinase PAK 5 (PAK5, Homo sapiens, UniProt Q9P286) | cell-free assay | 100 |
| Bone morphogenetic protein receptor type-1A (BMPR1A, Homo sapiens, UniProt P36894) | binding | 100 |
| Serine/threonine-protein kinase 35 (STK35, Homo sapiens, UniProt Q8TDR2) | cell-free assay | 85 |
| Glycogen synthase kinase-3 alpha (GSK3A, Homo sapiens, UniProt P49840) | cell-free assay | 92 |

Sample 4
Cell line: HaCaT
Tested at: 100 µM
Time: 36 h
| Structure (SMILES) | viability |
| --- | --- |
| CNCCCC1c2ccccc2C=Cc2ccccc21 | 4.69% |
| CC(=O)NS(=O)(=O)c1ccc(NC(=O)c2ccccc2C(=O)O)cc1 | 75.3% |
| CCOC(=O)C1=C(C)NC(C)=C(C(=O)OC)C1c1cccc(Cl)c1Cl (stereo not drawn) | 5.42% |

Sample 5
SMILES: CC#CC(=O)Nc1cc2c(Nc3ccc(F)c(Cl)c3)ncnc2cn1
Observed: enzyme activity
Mode: inhibitor
Tested at: 0.5 µM
Baseline: control
| target | remaining activity |
| --- | --- |
| Serine/threonine-protein kinase STK11 (STK11, Homo sapiens, UniProt Q15831) | 99.6% |
| Death-associated protein kinase 1 (DAPK1, Homo sapiens, UniProt P53355) | 94.7% |
| Protein kinase C beta type, isoform beta-I (PRKCB, Homo sapiens, UniProt P05771) | 97.4% |
| Serine/threonine-protein kinase 10 (STK10, Homo sapiens, UniProt O94804) | 72.6% |
| Serine/threonine-protein kinase Nek2 (NEK2, Homo sapiens, UniProt P51955) | 103% |
| Cyclin-dependent kinase 4, with cyclin D1 (CDK4, Homo sapiens, UniProt P11802) | 98.6% |
| Mitogen-activated protein kinase 9 (MAPK9, Homo sapiens, UniProt P45984) | 91.8% |

Further values, each from its own experiment
| SMILES | target or system | test | test system | setting | measurement | result |
| --- | --- | --- | --- | --- | --- | --- |
| C[C@@H]1CN(c2ccc(-c3cc(C(=O)NCCOCCOCCOCCOCCNC(=O)Cn4cc(-c5[nH]cc(C(=O)N[C@@H](CC(N)=O)c6ccc(F)c(Cl)c6)c5-c5ccc(Cl)cc5F)cn4)ccc3F)cc2NC(=O)c2c[nH]c(=O)cc2C(F)(F)F)C[C@H](C)N1C | WD repeat-containing protein 5 (WDR5, Homo sapiens, UniProt P61964) | SPR |  |  | dissociation rate constant | 0.0018 s⁻¹ |
| C[C@@H]1[C@H](O)[C@@H](C)/C=C/C=C/C=C/C=C/C=C/C=C/C=C/[C@H](O[C@@H]2O[C@H](C)[C@@H](O)[C@H](N)[C@@H]2O)C[C@@H]2O[C@](O)(C[C@@H](O)C[C@@H](O)[C@H](O)CC[C@@H](O)C[C@@H](O)CC(=O)O[C@H]1C)C[C@H](O)[C@H]2C(=O)O | THP-1 |  |  | 4 µM, cytotoxicity | inhibition | 98% |
| CC(C)(C)c1cnc(CSc2cnc(NC(=O)C3CCN(CCCCCCCCSc4cccc5c4CN(C4CCC(=O)NC4=O)C5=O)CC3)s2)o1 (stereo not drawn) | HuT78 | cell growth or viability, trypan blue |  | 48 h | IC50 | 62 nM |
| CCCCCCCCCCCCCCCCOP(=O)([O-])OCC[N+](C)(C)C | Leishmania donovani | parasite growth, imaging | THP-1 | 1 µM, intracellular, amastigote | inhibition | 34% and 29% and 51% and 31% and 30% |
| Cc1ccc(NC(=O)c2ccnc(C(F)(F)F)c2)cc1-c1cc(OCCO)nc(N2CCOCC2)c1 | cAMP-dependent protein kinase catalytic subunit alpha (PRKACA, Homo sapiens, UniProt P17612) | cell-free assay |  | 1 µM | remaining signal | 71% |

Repeated from above (sample 3):
| target | test | remaining binding [%] |
| --- | --- | --- |
| Bone morphogenetic protein receptor type-1A (BMPR1A, Homo sapiens, UniProt P36894) | binding | 100 |
| Mitotic checkpoint serine/threonine-protein kinase BUB1 (BUB1, Homo sapiens, UniProt O43683) | cell-free assay | 77 |
| Death-associated protein kinase 2 (DAPK2, Homo sapiens, UniProt Q9UIK4) | cell-free assay | 100 |
| Serine/threonine-protein kinase pim-1 (PIM1, Homo sapiens, UniProt P11309) | cell-free assay | 100 |
